Results gathered from unrelated publications.
Protocols differ between the studies behind these lines. Values joined by “and” are separate records of one study, mostly repeats; a detail may differ. ± gives the spread as reported.

SMILES	target or system	assay	system	conditions	scale	quantity	result
COc1cc2cc(-c3ccc(CC(=O)Nc4cc(C(C)(C)C(F)(F)F)no4)cn3)cnc2cc1OC		RECIST v1.1	RET-altered advanced solid tumour patients	oral, 10 mg once daily, phase I		objective response rate	0%
C=Cc1ccccc1B(O)O		iEDDA reaction	methanol/water	21 °C, added: tetrazine		activation free energy ΔG‡	20.1 kcal/mol
CC1(C)CCC(c2ccc(Cl)cc2)=C(CN2CCN(c3ccc(C(=O)NS(=O)(=O)c4ccc(N[C@H](CCN5CCOCC5)CSc5ccccc5)c(S(=O)(=O)C(F)(F)F)c4)cc3)CC2)C1		cell killing	primary canine neoplastic B cells, dog 29	24 h		EC50	1400 nM
NCC(=O)Nc1cncc(-c2nn3c(=O)cc(N4CCNCC4)nc3s2)c1		ADP-induced platelet aggregation, light transmission aggregometry	human stable CAD patients on aspirin, platelets ex vivo	0.075 mg/kg, 180 min post dose, added: 20 µM ADP	reference: placebo difference	inhibition of platelet aggregation	2.31%
C[C@@H](O)CCOC(=O)C[C@@H](C)O		refers to: C5:1 acylcarnitine	human, plasma	60 min, log2-transformed values		metabolite level	-4.31 ± 0.28 µmol/L
[Cl-].[Cl-].[Pt+2].[Ru+2].c1ccc(-c2nc3cc4ccccc4cc3nc2-c2ccccn2)nc1.c1cnc2c(c1)ccc1cccnc12.c1cnc2c(c1)ccc1cccnc12				concentration not given, second substitution step, added: guanosine 5'-monophosphate		activation enthalpy	12.9 ± 0.956 kcal/mol
Cc1noc(C)c1-c1cc(C(O)(c2ccccn2)c2ccccn2)c2nc(C3CC3)[nH]c2c1		refers to: CCR2 expression	human, peripheral blood	6 mg, day 8, 1599 study		maximum inhibition	49%
Cn1cc(-c2ccc(-c3cncc(Cl)c3N3CCC4(CCNC4=O)CC3)cc2)cn1	COLO 205	microarray, refers to: NEAT1		concentration not given, 6 h	reference: untreated cells	fold change in expression	3.99
C=CCn1c(=O)c2cnc(Nc3ccc(N4CCN(C)CC4)cc3)nc2n1-c1ccc2c(n1)[C@@](O)(CC)CC2			human, target lesions	400 mg 5:2 schedule, cycle 9		target lesion reduction	71%
N#Cc1ccc2c(c1)[C@H]1CCCN(C(=O)c3ccc4[nH]cnc4c3)[C@H]1C2			human, plasma	360 mg, day 15	reference: baseline, placebo-corrected	change in 1,5-anhydroglucitol	-17.7%
C[C@H](NC(=O)c1c(C(F)F)nn(C)c1Oc1cccc(C(F)(F)F)c1)c1ccc(C(=O)O)cc1			human, advanced tumours	250 mg, irRECIST		complete response	0%
CC(C)C[C@H](NC(=O)[C@@H](Cc1c[nH]c2ccccc12)NC(=O)[C@H](Cc1ccc(O)cc1)NC(=O)[C@H](CO)NC(=O)[C@H](Cc1c[nH]c2ccccc12)NC(=O)[C@H](Cc1c[nH]cn1)NC(=O)[C@@H]1CCC(=O)N1)C(=O)N[C@@H](CCCNC(=N)N)C(=O)N1CCC[C@H]1C(=O)NCC(N)=O			Chinese children, central precocious puberty, serum	intramuscular, 22.5 mg day 1, month 6, month 12		basal FSH level	1.76 IU/L
[Cl-].[Cl-].[Pt+2].[Ru+2].c1ccc(-c2nc3ccccc3nc2-c2ccccn2)nc1.c1cnc2c(c1)ccc1cccnc12.c1cnc2c(c1)ccc1cccnc12				concentration not given, second substitution step, added: thiourea		activation enthalpy	8.6 ± 0.478 kcal/mol
Cc1nn(-c2nc3c(F)cc(F)cc3s2)c(O)c1C(c1ccc(C(F)(F)F)cc1)c1c(C)nn(-c2nc3c(F)cc(F)cc3s2)c1O			mouse, cerulein-induced acute pancreatitis, serum	25 mg/kg		serum amylase activity	103 mOD/min and 98.2 mOD/min and 191 mOD/min and 93.6 mOD/min and 184 mOD/min and 92.5 mOD/min
CN[C@@H](C)C(=O)N[C@H]1CN(S(=O)(=O)c2cccc(S(=O)(=O)N3CC[C@H]4CC[C@@H](C(=O)NC(c5ccccc5)c5ccccc5)N4C(=O)[C@@H](NC(=O)[C@H](C)NC)C3)c2)CC[C@H]2CC[C@@H](C(=O)NC(c3ccccc3)c3ccccc3)N2C1=O		RECIST 1.1	advanced pancreatic cancer patients	dose not given, no prior therapy, added: AG		disease control rate	100%
CC(=O)Nc1ccc(O)cc1		barrier function (TEER)	human ileal GI microtissue EpiIntestinal-FT			IC15	> 100000 nM
Nc1ccccc1NC(=O)c1ccc(CNC(=O)OCc2cccnc2)cc1	OCI-Ly1			0.1 µM, 120 h		viability	184%
CCN1CCN(Cc2ccc(Nc3ncc(F)c(-c4cc(F)c5nc6n(c5c4)[C@H](C)CCC6)n3)nc2)CC1			human advanced solid tumours	400 mg, phase Ia monotherapy RECIST 1.1		complete response	0%
Cc1nc(-c2ccc(OCC(C)C)c(C#N)c2)sc1C(=O)O			mouse, chronic hyperuricaemia model, serum	dose not given		serum creatinine	15.2 µM and 35.6 µM and 32.6 µM and 39.8 µM and 47.4 µM
CC(=O)NCC(=O)NCC(=O)N[C@H](C(=O)N[C@@H](Cc1ccc(O)cc1)C(=O)N[C@@H](CO)C(=O)N[C@H]1CSSC[C@@H](C(=O)N[C@@H](CCCNC(=N)N)C(=O)N2CCC[C@H]2C(=O)N[C@@H](CCC(N)=O)C(=O)N[C@@H](CCCNC(=N)N)C(=O)NCC(=O)NCCC(=O)N[C@@H](CCCCNC(=O)CN(CC(=O)NCCCC[C@H](NC(=O)CCNC(=O)CNC(=O)[C@H](CCCNC(=N)N)NC(=O)[C@H](CCC(N)=O)NC(=O)[C@@H]2CCCN2C(=O)[C@H](CCCNC(=N)N)NC(=O)[C@@H]2CSSC[C@H](NC(=O)[C@H](CO)NC(=O)[C@H](Cc3ccc(O)cc3)NC(=O)[C@@H](NC(=O)CNC(=O)CNC(C)=O)[C@@H](C)O)C(=O)N[C@@H](Cc3c[nH]cn3)C(=O)N[C@@H](Cc3ccccc3)C(=O)NCC(=O)N[C@@H](C)C(=O)N[C@@H](CC(C)C)C(=O)N[C@@H]([C@@H](C)O)C(=O)N[C@@H](Cc3c[nH]c4ccccc34)C(=O)N[C@@H](C(C)C)C(=O)N2)C(N)=O)C(=O)CCN)C(N)=O)NC(=O)[C@H](C(C)C)NC(=O)[C@H](Cc2c[nH]c3ccccc23)NC(=O)[C@H]([C@@H](C)O)NC(=O)[C@H](CC(C)C)NC(=O)[C@H](C)NC(=O)CNC(=O)[C@H](Cc2ccccc2)NC(=O)[C@H](Cc2c[nH]cn2)NC1=O)[C@@H](C)O			healthy BALB/c mice	subcutaneous, 0.16 mg/kg, 6 d, single dose		haemoglobin	164 g/L

SMILES	target or system	assay	system	conditions	scale	quantity	result
CC1=NN(c2ccccc2)C(=O)C1			Rattus norvegicus, MCAO/R model	concentration not given, day 21 post-stroke	direction not given	mNSS score	5.17
CC(C)(C)c1ccc(S(=O)(=O)NC(=O)c2cc3ccccc3n2Cc2ccc(Br)c3ccccc23)cc1			mouse, acute hyperuricemia model	dose not given		serum uric acid	1010 µM and 1190 µM and 725 µM
O=S(=O)(NCCNC/C=C/c1ccc(Br)cc1)c1cccc2cnccc12		embryonic development	mouse zygotes	20 µM, 96 h post-hCG		two-cell embryos	35.3% and 63.2% and 35%
NC(=O)c1cnc2[nH]ccc2c1N[C@@H]1[C@@H]2CC3C[C@H]1C[C@@](O)(C3)C2		flow cytometry	Japanese healthy men, blood	oral, 100 mg twice daily, 72 h after day 7 dose	reference: baseline	CD8+ effector T-cell change	0.27%
N#CCNC(=O)c1ccc(-c2ccnc(Nc3ccc(N4CCOCC4)cc3)n2)cc1			patients with myelofibrosis	dose not given, 24 weeks, phase III trials		rate of spleen volume reduction ≥35%	25.8%
Cc1cc(C(C)(C)C)c(O)c(C(C)(C)C)c1		Cu2+ reduction, CUPRAC		30 µg/mL		absorbance	0.454 ± 0.052
Cc1cc(C)c(CNC(=O)c2cc(Cl)c3c(c2C)O[C@@](C)([C@H]2CC[C@H](N(C)C)CC2)O3)c(=O)[nH]1		IWG criteria, CR or PR or SD	relapsed/refractory PTCL-NOS patients	dose not given		disease control rate	62%
Nc1nc(=S)c2[nH]cnc2[nH]1	OCI-Ly1			0.5 µM, 120 h		viability	66.2%
COc1cc(F)c([C@@H]2CNC(=O)[C@H]2NC(=O)Nc2ccccc2)c(F)c1		LV haemodynamics	rat, myocardial ischaemia-reperfusion	1 mg/kg, 1008 h, 6 weeks post-injury		ejection fraction	57 ± 19%
N#Cc1ccc2c(-c3ccncc3)c(-c3ccc(F)cc3)nn2c1		kinase binding, competitor, MIB/MS competition, refers to: KIN3	Candida albicans cell lysate	100 nM	reference: DMSO	log2 fold change	0.374
N#CCC1CCN(c2nc(Nc3ccc(N4CCC(O)CC4)cc3)c3c(=O)[nH]ncc3n2)CC1		Olink multiplex	human, serum	20 mg, day 15, unit not given	reference: baseline	osteopontin level change	-1.05
C[C@H](Oc1ccc(Br)cc1-c1ccon1)C(=O)O		muscle velocity recovery cycles	human, tibialis anterior muscle	600 mg once daily, multiple doses, multiple ascending dose	reference: placebo	latency	0.231 ms
COc1ccc([C@@H](O)c2cc(-c3ncnc4cc(N5CCOCC5)ccc34)c(F)cc2Cl)nn1		RECIST version 1.1	patients, advanced solid tumours	400 mg twice daily, added: avelumab	reference: patients	disease control rate	1%
COc1cc(-c2ccccc2)ncc1C(=O)Nc1ccc2c(=O)[nH]c(-c3ccc(C(C)(C)O)cc3)nc2c1		RNA-seq GSEA, refers to: FALLER_ENTEROCYTE_PRO_MOUSE	organoids, small intestinal, Apc Q1405X, mouse	dose not given, knockout organoids	reference: DMSO, direction not given	normalized enrichment score	-1.97
O=C(NS(=O)(=O)c1ccc(C(F)(F)F)cc1)c1cc2ccccc2n1Cc1ccc(Br)c2ccccc12			mouse, acute hyperuricaemia model, serum	oral, 2 mg/kg	reference: vehicle model	serum uric acid decrease	86.1%
c1ccc(-c2n[nH]cc2-c2ccnc3ccccc23)nc1		kinase binding, competitor, MIB/MS competition, refers to: HSL1	Candida albicans cell lysate	10 µM	reference: DMSO	log2 fold change	1.56
C[C@H]1C[C@H]2CSC(N)=N[C@@]2(c2nc(NC(=O)c3ccc(OC(F)F)cn3)cs2)CO1		refers to: Aβx-40	healthy adults, plasma	15 mg once daily, day 10	reference: placebo	percent change from baseline	-50.9%
O=P(O)(O)C(Cl)(Cl)P(=O)(O)O			Mus musculus, sham-operated, hippocampal fissure	concentration not given, day 7	reference: total area	Iba1-positive area	0.45% and 1.2% and 0.35%
OC(CCN1CCCCC1)(c1ccccc1)C1CC2C=CC1C2 (stereo not shown)		resting-state EEG	healthy elderly humans	oral, 4 mg, eyes closed, LS mean		EEG Beta2-power Pz-O2	1.1 µV²
CC(C)NCC(O)c1ccc(O)c(O)c1 (stereo not shown)			ventricular cardiomyocytes, C57BL/6 mouse	dose not given, 0.848 s		sarcomere length	1.5 µm

A few entries again:
SMILES	target or system	assay	system	conditions	scale	quantity	result
OC(CCN1CCCCC1)(c1ccccc1)C1CC2C=CC1C2 (stereo not shown)		resting-state EEG	healthy elderly humans	oral, 4 mg, eyes closed, LS mean		EEG Beta2-power Pz-O2	1.1 µV²
O=S(=O)(NCCNC/C=C/c1ccc(Br)cc1)c1cccc2cnccc12		embryonic development	mouse zygotes	20 µM, 96 h post-hCG		two-cell embryos	35.3% and 63.2% and 35%
CC(C)C[C@H](NC(=O)[C@@H](Cc1c[nH]c2ccccc12)NC(=O)[C@H](Cc1ccc(O)cc1)NC(=O)[C@H](CO)NC(=O)[C@H](Cc1c[nH]c2ccccc12)NC(=O)[C@H](Cc1c[nH]cn1)NC(=O)[C@@H]1CCC(=O)N1)C(=O)N[C@@H](CCCNC(=N)N)C(=O)N1CCC[C@H]1C(=O)NCC(N)=O			Chinese children, central precocious puberty, serum	intramuscular, 22.5 mg day 1, month 6, month 12		basal FSH level	1.76 IU/L
Cc1cc(C(C)(C)C)c(O)c(C(C)(C)C)c1		Cu2+ reduction, CUPRAC		30 µg/mL		absorbance	0.454 ± 0.052
